Measurements pooled from the literature.
Each line is one published result; not all experiments were run side by side. Values joined by “and” are separate records of one study, mostly repeats; a detail may differ. Numbers after ± are the reported error.
DNA topoisomerase IB: DNA topoisomerase IB (Leishmania donovani, UniProt A0A3Q8IHS4+Q8WQM6)
HCK: Tyrosine-protein kinase HCK (HCK, Homo sapiens, UniProt P08631)
UniProt P00519, sequence (whole entry, looked up): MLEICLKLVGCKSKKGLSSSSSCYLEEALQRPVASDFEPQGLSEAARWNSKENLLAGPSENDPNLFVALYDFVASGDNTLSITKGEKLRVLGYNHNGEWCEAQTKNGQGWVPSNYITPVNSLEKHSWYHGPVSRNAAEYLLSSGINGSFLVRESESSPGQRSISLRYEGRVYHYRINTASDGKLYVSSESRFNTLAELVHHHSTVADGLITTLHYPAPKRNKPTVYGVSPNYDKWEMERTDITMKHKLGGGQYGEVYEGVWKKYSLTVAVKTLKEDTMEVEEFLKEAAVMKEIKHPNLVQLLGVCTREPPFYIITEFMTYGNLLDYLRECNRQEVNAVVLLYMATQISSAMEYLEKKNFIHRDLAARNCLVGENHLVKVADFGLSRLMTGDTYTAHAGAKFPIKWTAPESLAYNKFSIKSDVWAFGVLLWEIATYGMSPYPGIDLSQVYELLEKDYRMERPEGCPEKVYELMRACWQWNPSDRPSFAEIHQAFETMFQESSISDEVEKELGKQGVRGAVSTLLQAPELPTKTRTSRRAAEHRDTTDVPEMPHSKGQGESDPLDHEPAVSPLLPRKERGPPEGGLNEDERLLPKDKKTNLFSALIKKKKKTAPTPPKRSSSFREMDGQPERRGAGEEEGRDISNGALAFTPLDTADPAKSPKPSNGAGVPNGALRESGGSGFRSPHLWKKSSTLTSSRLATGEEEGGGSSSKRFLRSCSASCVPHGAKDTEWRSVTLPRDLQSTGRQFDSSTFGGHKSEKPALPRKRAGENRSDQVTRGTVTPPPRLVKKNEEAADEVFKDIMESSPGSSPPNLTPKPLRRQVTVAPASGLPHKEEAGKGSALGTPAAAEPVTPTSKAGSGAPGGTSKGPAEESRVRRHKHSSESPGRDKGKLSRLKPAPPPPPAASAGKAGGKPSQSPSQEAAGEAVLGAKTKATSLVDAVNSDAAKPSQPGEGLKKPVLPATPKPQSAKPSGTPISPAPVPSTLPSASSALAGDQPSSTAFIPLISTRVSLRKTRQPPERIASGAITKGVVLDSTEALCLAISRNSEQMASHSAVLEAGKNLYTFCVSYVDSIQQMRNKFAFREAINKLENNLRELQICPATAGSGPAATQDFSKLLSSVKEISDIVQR
UniProt Q9LMA8, sequence (whole entry, looked up): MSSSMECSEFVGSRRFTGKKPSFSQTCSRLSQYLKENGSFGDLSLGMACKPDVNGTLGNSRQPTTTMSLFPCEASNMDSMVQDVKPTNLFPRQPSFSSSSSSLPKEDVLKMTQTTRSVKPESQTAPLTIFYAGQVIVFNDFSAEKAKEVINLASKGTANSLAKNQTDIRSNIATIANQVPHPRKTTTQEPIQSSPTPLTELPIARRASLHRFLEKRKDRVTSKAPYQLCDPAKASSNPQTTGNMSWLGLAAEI
UniProt O96017, sequence (whole entry, looked up): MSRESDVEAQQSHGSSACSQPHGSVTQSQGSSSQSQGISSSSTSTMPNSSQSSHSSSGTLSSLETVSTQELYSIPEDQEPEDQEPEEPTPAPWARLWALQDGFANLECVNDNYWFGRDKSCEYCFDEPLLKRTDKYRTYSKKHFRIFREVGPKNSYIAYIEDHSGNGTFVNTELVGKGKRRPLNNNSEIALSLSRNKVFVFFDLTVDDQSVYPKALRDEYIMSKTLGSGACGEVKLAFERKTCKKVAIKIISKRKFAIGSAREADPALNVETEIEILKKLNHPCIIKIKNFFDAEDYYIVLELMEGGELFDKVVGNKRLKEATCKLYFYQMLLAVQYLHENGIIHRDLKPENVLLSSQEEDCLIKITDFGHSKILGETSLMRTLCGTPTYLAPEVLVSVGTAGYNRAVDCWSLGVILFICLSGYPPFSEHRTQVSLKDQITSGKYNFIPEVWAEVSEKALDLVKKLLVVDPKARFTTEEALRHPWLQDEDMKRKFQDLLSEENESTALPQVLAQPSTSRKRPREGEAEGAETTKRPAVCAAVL

O=C(Cn1nc(C(F)(F)F)c2c1CCCC2)NCCc1ccccc1 — IC50 (Trypanothione synthetase (Trypanosoma brucei, UniProt Q586P2); enzyme activity, inhibitor): 5.6 µM
COP(=O)(OC)OC[C@H]1OC(O)(COP(=O)(OC)OC)[C@@H](O)[C@@H]1O (stereo partly shown) — IC50 (Phosphoglycerate mutase 1 (Homo sapiens, UniProt P18669); enzyme activity, inhibitor): 1520 µM
Nc1ncnc2c1c(-c1ccc(Oc3ccccc3)cc1)nn2C1CCCC1 — IC50 (Proto-oncogene tyrosine-protein kinase Src, SH2 (SRC, Gallus gallus, UniProt P00523, G530I/P529E/Q528E); cell-free assay, inhibitor): < 0.025 µM
O=S(=O)(Nc1cscn1)c1c(F)cc(NCc2c(F)ccc(F)c2CN2CCC2)cc1F — IC50 (SCN1A (Homo sapiens, UniProt P35498); ion current, inhibitor): 8.75 µM
CC(C)C[C@H](NC(=O)[C@H](CO)NC(=O)[C@@H](NC(=O)[C@@H]1CCCN1C(=O)[C@H](CCCNC(=N)N)NC(=O)[C@H](CCC(=O)O)NC(=O)[C@H](CCCCN)NC(=O)[C@H](CCCNC(=N)N)NC(=O)[C@H](CCCNC(=N)N)NC(=O)CNC(=O)[C@H](C)NC(=O)[C@@H](N)Cc1ccc(O)cc1)[C@@H](C)O)C(=O)N[C@@H](CC(N)=O)C(=O)N[C@H](C(=O)N[C@@H](Cc1ccccc1)C(=O)N1CCC[C@H]1C(=O)O)C(C)C — IC50 (Mitogen-activated protein kinase 14 (Rattus norvegicus, UniProt P70618, E160S/E163T/N159K); kinase activity, inhibitor, competitive kinase): > 100 µM
Cc1ccc(-c2csc(CS(=O)(=O)C(C)(C)C)n2)cc1 — IC50 (Trypanothione synthetase (Trypanosoma brucei, UniProt Q586P2); enzyme activity, inhibitor): > 100 µM
CCCCCCCCCC(=O)OCCN1CCN(c2cc(Nc3ncc(C(=O)Nc4c(C)cccc4Cl)s3)nc(C)n2)CC1 — IC50 (ABL1 (Homo sapiens, UniProt P00519)): 0.22 µM
CC1OC(Oc2c(-c3ccc(O)cc3)oc3cc(O)cc(O)c3c2=O)C(OC(=O)C=Cc2ccc(O)cc2)C(O)C1OC(=O)C=Cc1ccc(O)cc1 (stereo not shown) — IC50 (CXCR6 (Homo sapiens, UniProt O00574); calcium flux, antagonist; 293FT GCaMP6 transfected): > 100 µM
C=C(C)C(=O)Nc1ccc(-c2c(-c3ccc(Oc4nccc(C)n4)cc3)c3c(N)ncnc3n2C)cc1 — IC50 (FGFR3 (Homo sapiens, UniProt P22607); Caliper mobility shift; 30 min preincubation, added: 100 µM ATP): 0.53 µM
CCNC1=CC(=O)c2cc3c(cc2C1=O)CCCC3(C)C — IC50 (DNA topoisomerase IB; DNA relaxation activity, inhibitor; added: supercoiled plasmid DNA): > 100 µM
COc1ccc2nc3cc(Cl)ccc3c(NCCCCc3c(N)nc(N)nc3N)c2c1 — IC50 (Muscleblind-like protein 1, with cTNT RNA (Homo sapiens, UniProt Q9NR56); MBNL1-RNA binding, gel mobility shift; no tRNA, added: cTNT RNA, 15 nM MBNL1): 101 ± 26 µM
CCOC(=O)N1CCN(Cc2nc3c(c(=O)n(C)c(=O)n3C)n2CCC(C)C)CC1 — IC50 (ALDH1B1 (Homo sapiens, UniProt P30837)): > 57 µM
CC(/C=C/C(=O)NO)=C\[C@@H](C)C(=O)c1ccc(N(C)C)cc1 — IC50 (Receptor-type tyrosine-protein phosphatase alpha (Homo sapiens, UniProt P18433); enzyme activity, inhibitor; added: DiFMUP): > 100 µM
CCOc1ccccc1-c1nc(CC(=O)NCc2cn3ccccc3n2)cs1 — IC50 (Trypanothione synthetase (Trypanosoma brucei brucei, UniProt Q586P2); enzyme activity, BIOMOL Green phosphate release; 1 h preincubation): 20.3 µM and 20 µM
NC(=O)[C@@H]1CCNC(=O)[C@H](CCCNC(=O)c2cnccn2)NC(=O)[C@H](Cc2ccco2)NC(=O)[C@H](CC2CC2)NC(=O)/C=C\C(=O)N1 — IC50 (HCK; enzyme activity, inhibitor, absorbance): > 100 µM
NS(=O)(=O)c1ccc(N2N=C(C(F)(F)F)C(O)C2c2ccc(F)cc2F)cc1 (stereo not shown) — IC50 (Cyclooxygenase-2 (Canis lupus familiaris, UniProt Q8SPQ9); PGE2 formation, inhibitor; dog whole blood; added: LPS): > 99.9 µM
CCC(NC(=O)C(CC(C)C)NC(=O)CCc1ccccc1)C(=O)C(=O)NCc1cccc(OC)c1 (stereo not shown) — IC50 (Calpain-2 catalytic subunit (Capn2, Mus musculus, UniProt O08529); enzyme activity, inhibitor; mouse pons-cerebellum membranes; added: calcium 2 mM): 0.085 µM
CN1C(=O)/C=C/C(=O)N[C@H](C(=O)O)CCCNC(=O)[C@H](Cc2ccc([N+](=O)[O-])cc2)NC(=O)[C@H](Cc2ccc(F)cc2)NC(=O)[C@@H]1CC1CCCCC1 — IC50 (Proto-oncogene tyrosine-protein kinase Src, SH3-SH2-kinase domain (SRC, Gallus gallus, UniProt P00523); enzyme activity, inhibitor, Z'-LYTE FRET; Src residues 83-533, added: 50 µM ATP): 0.57 ± 0.02 µM
N#C/C(=C\c1ccc(O)c(O)c1)C(=O)c1ccc(O)c(O)c1 — IC50 (Genome polyprotein, NS3 helicase domain (Hepatitis C virus genotype 1b, UniProt Q9WMX2); helicase activity, molecular beacon helicase; added: RNA substrate): > 100 µM
C#CCn1c(Oc2cccc(C3(C(F)(F)F)N=N3)c2)nc2c1c(=O)n(CCCO)c(=O)n2C — IC50 (TRPC4/TRPC1 (TRPC1/TRPC4, Homo sapiens, UniProt P48995+Q9UBN4); calcium influx, inhibitor, Fura-2; HEK T-REx expressing TRPC1/TRPC4; added: englerin A 100 nM): 0.121 µM
CCn1c(=S)[nH]c2cc3ccccc3cc2c1=O — IC50 (Genome polyprotein, protease (Hepatitis C virus genotype 1b, UniProt O92972); enzyme activity, inhibitor, FRET): 6.41 µM
O=C(O)CCc1ccc2c(c1)c(CCc1ccccc1)cn2-c1ccc(Oc2ccccc2)cc1 — IC50 (PLA2G4A (Homo sapiens, UniProt P47712); enzyme activity, inhibitor, fluorescence): 6.66 µM
O=C1C(=NN=c2[nH]ccs2)c2cc(Cl)ccc2N1CCn1ncc2c(=O)[nH]cnc21 — IC50 (Cyclin-dependent kinase 6, with cyclin D3 (CDK6, Homo sapiens, UniProt Q00534); enzyme activity, inhibitor, ADP detection): 0.123 µM
COc1ccccc1N1CCN(c2nc3c(c(=O)[nH]2)CCCC3)CC1 — IC50 (TNKS2 (Homo sapiens, UniProt Q9H2K2); enzyme activity, inhibitor, ELISA): 0.0423 µM
CCOC(=O)Cn1nnc2ccccc21 — IC50 (Xanthine dehydrogenase/oxidase, oxidase form (XDH, Bos taurus, UniProt P80457); enzyme activity, inhibitor): ≤ 487 µM
O=C1NC(=O)/C(=C/c2cccc(C(F)(F)F)c2)S1 — IC50 (COI1/TIFY10A (Arabidopsis thaliana, UniProt O04197+Q9LMA8)): 17.7 µM
Cc1ccc(C=C2C(=O)c3ccccc3C2NC2CCCCC2)cc1 (racemic) — IC50 (DUSP1 (Homo sapiens, UniProt P28562); ERK phosphorylation restoration, inhibitor, chemical complementation; HeLa transfected with c-Myc-DUSP1; 15 min, added: TPA): 25.5 ± 6.1 µM
CC(C)n1nc(-c2ccc3cc(OCc4ccccc4)ccc3c2)c2c(N)ncnc21 — IC50 (Tyrosine-protein kinase HCK, SH2 (HCK, Homo sapiens, UniProt P08631, Q523E/Q524E/Q525I); enzyme activity, inhibitor): < 0.02 µM
CC(C)=CCCC1=CCC2C(=O)c3ccccc3C(=O)C2C1 (stereo not shown) — IC50 (DNA topoisomerase IB; DNA relaxation activity, inhibitor; added: supercoiled plasmid DNA): > 100 µM
O=C(O)c1csc(S(=O)(=O)NCc2ccc3c(c2)OCO3)c1 — IC50 (RAD52 (Homo sapiens, UniProt P43351); DNA binding, inhibitor, FRET; 25 °C, added: Cy3-dT30-Cy5 1 nM): 933 ± 46 µM
CCS(=O)(=O)c1ncc(Cl)c(C(=O)Nc2c(C(=O)Nc3cccc(C)c3)oc3ccccc23)n1 — IC50 (Forkhead box protein M1, DNA-binding domain (FOXM1, Homo sapiens, UniProt Q08050); DNA binding, inhibitor, EMSA; DNA-binding domain): 34.4 ± 11.2 µM
CN(C(=O)c1ccn2ncc(-c3ccc(C(N)=O)cc3)c2c1)c1ccc(C#N)cn1 — IC50 (MMP8 (Homo sapiens, UniProt P22894); enzyme activity, inhibitor): > 30 µM
O=C1/C=C\C(=O)N[C@@H](CC2CCCCC2)C(=O)N[C@@H](Cc2ccccc2)C(=O)N[C@@H](CCCNC(=O)c2cnccn2)C(=O)NCC[C@@H](C(=O)O)N1 — IC50 (HCK; enzyme activity, inhibitor, absorbance): 0.86 µM
CC(=O)Nc1ccc(S(=O)(=O)NCc2nc(-c3ccccc3Cl)no2)cc1 — IC50 (Trypanothione synthetase (Trypanosoma brucei, UniProt Q586P2); enzyme activity, inhibitor): 3.7 µM
CN1CCN(Cc2ccc(-c3ccc(CO[C@H]4CCC[C@@H]4NC(=O)c4cc(-c5cnn(C)c5)cnc4N)cc3)cc2)CC1 — IC50 (CHEK2 (Homo sapiens, UniProt O96017); enzyme activity, inhibitor): 0.102 µM
Cc1ccccc1-c1cc(N2CCN(C(=O)CCC(=O)O)CC2)ccc1N(C)C(=O)C(C)(C)c1cc(C(F)(F)F)cc(C(F)(F)F)c1 — IC50 (TACR1 (Homo sapiens, UniProt P25103); IP1 accumulation, antagonist, HTRF; 90 min preincubation, added: substance P 10 nM): 0.178 µM
COCCCN1CCc2c(Cc3ccc(Cl)cc3)[nH]c3c(OC(F)F)ccc(c23)C1=O — IC50 (PDE10A (Homo sapiens, UniProt Q9Y233); enzyme activity, inhibitor): 1.46 µM

For quick reference, copied from above:
CC1OC(Oc2c(-c3ccc(O)cc3)oc3cc(O)cc(O)c3c2=O)C(OC(=O)C=Cc2ccc(O)cc2)C(O)C1OC(=O)C=Cc1ccc(O)cc1 (stereo not shown) — IC50 (CXCR6 (Homo sapiens, UniProt O00574); calcium flux, antagonist; 293FT GCaMP6 transfected): > 100 µM
C=C(C)C(=O)Nc1ccc(-c2c(-c3ccc(Oc4nccc(C)n4)cc3)c3c(N)ncnc3n2C)cc1 — IC50 (FGFR3 (Homo sapiens, UniProt P22607); Caliper mobility shift; 30 min preincubation, added: 100 µM ATP): 0.53 µM
